# Published values from different studies.
# Several values in a cell are separate wells, animals, samples, runs or records. ± marks the error that the study gave.
SMILES,cell line,test,test system,setting,scale,quantity,value
Fc1ccc(Cl)c(F)c1-c1c(Cl)ncn1-c1ccc(Cl)cc1,QBI293 cells,"acetylated α-tubulin, microtubule stabiliser, ELISA",,,,concentration at maximal effect,30 µM
C[C@H]1[C@@H](O)O[C@@H]2O[C@@]3(C)CC[C@H]4[C@H](C)CC[C@@H]1[C@@]24OO3,THP-1,"annexin V/PI flow cytometry, refers to: annexin V-/PI+",,"3.2 µM, 24 h",,necrotic cells,0%
Nc1cccc2c1C(=O)N(C1CCC(=O)NC1=O)C2=O (centres unmarked),bone marrow CD138+ myeloma cells,XTT,,"1.8 µM, phenol red-free RPMI",,viability,8%
O=C(CCCCCCC(=O)Nc1ccccc1)NO,MDA-MB-231 BAX/BAK siRNA knockdown,CellTiter-Glo,,concentration not given,relative to: normalised luminescence,viability,21.2% and 18.7%
CCOC(=O)C1=C(C)NC2=C(C(=O)OC(c3ccc(OC)c(OC)c3)C2)C1c1ccc2ccccc2c1 (centres unmarked),J774.A1,cytotoxicity,,,,EC50,> 20000 nM
COc1cc(N2CCC(O)CC2)ccc1Nc1cc(Nc2ccccc2S(=O)(=O)C(C)C)c2cc[nH]c2n1,U2OS H2B-GFP Plk4-overexpressing,time-lapse microscopy,,"10 µM, NEBD to anaphase onset",,mitosis duration,20 min
CC(C)C[C@@H](C=O)NC(=O)[C@H](CC(C)C)NC(=O)[C@H](CC(C)C)NC(=O)OCc1ccccc1,BRD4-HiBiT cells,"BRD4 degradation rescue, inhibitor",,"24 h, 50% degradation rescued, together with: dBET6 500 nM",,EC50,158 nM
CCOC(=O)CSc1nc(-c2ccc(Cl)cc2)c2c(NC(=O)c3ccccc3)nnc-2[nH]1,MDA-MB-435,SRB,,"10 µM, NCI60 single-dose screen",relative to: untreated,cell growth,98.8%
CCn1cc(-c2cc(Cn3ccoc3=N)cc3c2CCN([C@@H](C)c2cc(OC)ccn2)C3=O)c(C(F)(F)F)n1,RL95-2,"cell growth, inhibitor",,120 h,,EC50,2730 nM
Cc1nn(CC(F)(F)F)cc1Nc1ncc(Br)c(NCc2ccc(S(N)(=O)=O)cc2)n1,THP1-Dual,western blot,,"20 µM, separate blot, together with: HT-DNA",relative to: DMSO,phospho-TBK1 to TBK1 ratio,0.552 and 0.657 and 0.501
CCOC(=O)C1=C(C)NC2=C(C(=O)OC(c3ccc(Cl)cc3)C2)C1c1ccccc1Cl (centres unmarked),J774.A1,cytotoxicity,,,,EC50,> 20000 nM
COc1cc(/C=C/C(=O)N2CCC=CC2=O)cc(OC)c1OC,MDA-MB-468,"qRT-PCR, refers to: Bcl-xL",,"30 µM, 6 h",relative to: time zero,mRNA expression,57.8 ± 14.6%
CC/C(=N\NC(=O)NCc1cccc(O)c1)c1ccc(O)c(C)c1O,SK-OV-3,Western blot,2D culture,"10 µM, 1 h, unit not given",relative to: β-actin,YAP protein level,1.61 ± 0.34
C[S+](C)[O-],WA09 hESC-derived forebrain rosette tissues,,,0.1 % v/v,,single rosette emergence,91.7 ± 8.94%
CC1(C)COc2ccc(F)cc2CN2c3nc4c(cnn4cc3OC[C@H]2C(F)F)C(=O)N1,"Ba/F3 EML4-ALK v1, no mutation",cell viability,,,,Emax,99.9%
C=CC(=O)N1CCC[C@@H](c2ccc(C(N)=O)c3[nH]ccc23)C1,TMD8 RAC2 knock-out,"calcium flux, FLIPR",,,,IC50,< 100 nM
Cn1cc(Nc2nccc(-c3ccc4c(c3)CN(C3COC3)CC[C@H]4NC(=O)c3cn(C(C)(C)C)nn3)n2)cn1,mouse splenic B cells,refers to: Thrombin signalling,,"30 mg/kg, IgD-activated in vivo","relative to: vehicle, direction not given",pathway activation z-score,3.71
C[C@@H](O)[C@H](NC(=O)Nc1ncnc2c1ncn2[C@@H]1O[C@H](CO)[C@@H](O)[C@H]1O)C(=O)O,mock-transfected cells,"TGFα shedding, agonist",,10 µM,relative to: unstimulated vehicle control,AP-TGFα release,0.92% and -0.794% and 0.191%
C[C@H](CCC(=O)NCCS(=O)(=O)O)[C@H]1CC[C@H]2[C@@H]3CC[C@@H]4C[C@H](O)CC[C@]4(C)[C@H]3CC[C@]12C,human ADPKD PLD cystic cholangiocytes,cell counting,,"20 µM, 48 h",relative to: untreated,proliferation increase,53%
CCCCc1oc2ccc(NS(C)(=O)=O)cc2c1C(=O)c1ccc(OCCCN(CCCC)CCCC)cc1,human embryonic stem cell aggregates,"mRNA level, microarray, refers to: LRP2",,"0.5 µM, 120 h","relative to: untreated, up-regulated",fold change,3.6 fold
O=C(C[C@@H](C(F)F)n1ccc(F)n1)N1CCC(O)(Cn2cnc3c(cnn3-c3ccc(F)cc3)c2=O)CC1,CHP-212 resistant subline R3,annexin V/PI flow cytometry,,"1 µM, 48 h",,apoptotic cells,15.1% and 8.99% and 11.8%
CCCCN1C[C@H](O)[C@@H](O)[C@@H](O)[C@H]1CO,sample I patient fibroblasts,"GlcCer level lowering, LC-MS/MS, refers to: GlcCer d18:1/16:0",,216 h,,IC50,8300 nM
Cc1nc(NC(=O)N2CCC[C@H]2C(N)=O)sc1-c1ccnc(C(C)(C)C(F)(F)F)c1,MKN-1,CellTiter-Glo,,120 h,,Hill coefficient GR curve,1.52
O=C(/C=C/C=C/C=C/C1CCCCC1)NC1=C[C@@](O)(/C=C/C=C/C=C/C(=O)NC2=C(O)CCC2=O)[C@@H]2O[C@@H]2C1=O,KYSE-410,"cell growth, CellTiter-Glo",,78 h,,GI50,26100 nM
CCOC(=O)C1=C(C)NC2=C(C(=O)CC(c3ccc(OC)c(OC)c3)C2)C1c1ccc(Cl)cc1 (mixture of isomers),J774.A1,cytotoxicity,,,,EC50,> 20000 nM
Cn1cc(-n2cnc3c(NCc4nc5cc(Cl)c(Cl)cc5[nH]4)nc(N4CCOCC4)nc32)cn1,MDA-MB-231,"qRT-PCR, refers to: FANCD2",,"50 nM, 6 h, unit not given",relative to: untreated,mRNA level,0.894
CC#CC(=O)N1CCC[C@H]1c1nc(-c2ccc(C(=O)Nc3ccccn3)cc2)c2c(N)nccn12,TMD8,"calcium flux, FLIPR",,"4 h preincubation, together with: anti-IgM",,maximum inhibition,47.4%
O=C(Nc1cc(OCCN2CCCC2)c2ccccc2n1)c1cc(OCCN2CCCC2)cc(C(=O)Nc2cc(OCCN3CCCC3)c3ccccc3n2)n1,HT-1080,"cell viability, CellTiter-Glo",,72 h,relative to: IC50 HT-1080 over WI-38,selectivity ratio,1
COC1=CC(=O)C=C(OC)C1=O,MDA-MB-231 BAX/BAK siRNA knockdown,"cell viability, CellTiter-Glo",,,direction not given,Z score,-0.963
CC/C(=N\NC(=O)C(C)Nc1ccccc1)c1ccc(O)c(C)c1O (centres unmarked),SK-OV-3,"Western blot, refers to: LATS",,"10 µM, 6 h, 2D culture, unit not given",relative to: β-actin,protein level,0.9 ± 0.4
CCn1cc(-c2cc(Cn3ccnc3)cc3c2CCN([C@H](c2cc(OC)ccn2)C2CC2)C3=O)c(C(F)(F)F)n1,RL95-2,"cell growth, inhibitor",,120 h,,EC50,> 30000 nM
c1ccc2[nH]ccc2c1,HCT-8,"RNA-seq, refers to: LURAP1L",,concentration not given,,"mRNA level, LS mean",9.79 counts per million
FC(F)c1nc2ccccc2n1-c1nc(N2CCOCC2)nc(N2CCOCC2)n1,HEK293T (G4C2)66-No-ATG-GFP reporter,"RAN translation of r(G4C2)exp, fluorescence reporter",,concentration not given,,inhibition,40%
CCc1ccc(NC(=O)Nc2c[nH]c3ccccc23)cc1,THP1-Dual,"IRF3 phosphorylation, inhibitor, Western blot densitometry",,"20 µM, together with: HT-DNA",,phospho-IRF3/IRF3 ratio,0.118 and 0.103 and 0.084
CC(C)c1c(C(=O)Nc2ccccc2)c(-c2ccccc2)c(-c2ccc(F)cc2)n1CC[C@@H](O)C[C@@H](O)CC(=O)O,MDA-MB-231 BAX/BAK siRNA knockdown,CellTiter-Glo,,concentration not given,relative to: normalised luminescence,viability,37.9% and 44.1%
COc1cnc2cccc(N3CCc4c(cc(Cn5ccnc5C)cc4-c4cn(C)nc4C(F)(F)F)C3=O)c2c1,KP3,cell growth,,120 h,,EC50,1010 nM
CC(C)C[C@H](NC(=O)CNC(=O)c1cc(Cl)ccc1Cl)B(O)O,BRD4-HiBiT cells,"BRD4 degradation rescue, inhibitor",,"4 h, together with: dBET6 500 nM",,EC50,198 nM
O=P(O)(O)C(O)(Cn1ccnc1)P(=O)(O)O,hFOB 1.19,AlamarBlue,,"3.8 µM, 24 h",relative to: control,viability,101 ± 1%
CCCC1=C(C(=O)OCC)C(c2ccccc2Cl)C2=C(CC(c3ccc(OC)c(OC)c3)OC2=O)N1 (centres unmarked),J774.A1,cytotoxicity,,,,EC50,> 20000 nM
CC[C@H](C)[C@H](NC(=O)[C@H](C)NC(=O)CNC(=O)[C@H](Cc1ccccc1)NC(=O)[C@H](CC(N)=O)NC(=O)[C@H](CC(N)=O)NC(=O)[C@H](CO)NC(=O)[C@H](CO)NC(=O)[C@H](Cc1c[nH]cn1)NC(=O)[C@@H](NC(=O)[C@H](CC(C)C)NC(=O)[C@H](Cc1ccccc1)NC(=O)[C@H](CC(N)=O)NC(=O)[C@H](C)NC(=O)[C@H](CC(C)C)NC(=O)[C@H](CCCNC(=N)N)NC(=O)[C@H](CCC(N)=O)NC(=O)[C@@H](NC(=O)[C@H](C)NC(=O)[C@@H]1CSSC[C@H](NC(=O)[C@@H](N)CCCCN)C(=O)N[C@@H](CC(N)=O)C(=O)N[C@@H]([C@@H](C)O)C(=O)N[C@@H](C)C(=O)N[C@@H]([C@@H](C)O)C(=O)N1)[C@@H](C)O)C(C)C)C(=O)N[C@@H](CC(C)C)C(=O)N[C@@H](CO)C(=O)N[C@@H](CO)C(=O)N[C@H](C(=O)N[C@@H](CC(N)=O)C(=O)N[C@H](C(=O)NCC(=O)N[C@@H](CO)C(=O)N[C@@H](CC(N)=O)C(=O)N[C@H](C(=O)N[C@@H](Cc1ccc(O)cc1)C(N)=O)[C@@H](C)O)C(C)C)[C@@H](C)O,INS-1,DCFH-DA confocal microscopy,,"1 µM, unit not given",relative to: control,intracellular ROS level,5.39 and 4.88
N#C/C(=C\c1c[nH]nc1-c1ccc2ccccc2c1)C(=O)O,LX-2,"qPCR, refers to: PAI1",,"10 µM, hepatic stellate cell activation, together with: TGFβ",relative to: untreated,mRNA level,decreased
CCCCC[C@H](O)/C=C/[C@H]1C(=O)C[C@H](O)[C@@H]1C/C=C\CCCC(=O)O,"HEK293-A2AR cells, SLCO2A1 knockout",HTRF cAMP,,50 µM,,HTRF cAMP signal,323 a.u. and 316 a.u. and 321 a.u.
Cc1cnc(NC2CCOCC2)nc1-n1cnc(C(=O)NC(CN)c2cc(F)cc(Cl)c2)c1 (centres unmarked),MINO,flow cytometry,,"1 µM, 24 h",,sub-G0 cells,16.7%
Cc1nn(-c2nc3c(F)cc(F)cc3s2)c(O)c1C(c1cccc(C(F)(F)F)c1)c1c(C)nn(-c2nc3c(F)cc(F)cc3s2)c1O,THP1-Dual,IFN luciferase reporter,,"1.25 µM, together with: HT-DNA",,inhibition,-2.66% and -2.18% and -8.54% and 4.36% and -6.3% and -8.37%
Cn1cc(-c2ccc(-c3cncc(Cl)c3N3CCC4(CCNC4=O)CC3)cc2)cn1,COLO 205,"gene expression, microarray, refers to: NRP1 mRNA",,"concentration not given, 2 h",relative to: untreated cells,log2 fold change,3.2
NS(=O)(=O)OC[C@H]1C[C@@H](Nc2ccnc3cc(-c4cccc(SC(F)(F)F)c4)nn23)[C@H](O)[C@@H]1O,BRD4-HiBiT cells,"BRD4 degradation rescue, inhibitor",,"4 h, together with: dBET6 500 nM",,EC50,380 nM
C=Cc1c2[n-]c(c1C)/C=c1\[n-]/c(c(C)c1C=C)=C\c1[n-]c(c(CCC(=O)O)c1C)/C=c1\[n-]c(c(C)c1CCC(=O)O)=C2.[Sn+4],SH-SY5Y,"RNA-seq, refers to: SYNJ2 mRNA",,"5 µM, 5 h",relative to: untreated cells,fold change,2.44
Cc1cccc(-c2[nH]c(CNc3ccccc3F)nc2-c2ccc3ncnn3c2)n1,MM1.S pomalidomide-resistant,XTT,,4 µM,,viability,18% and 13%
CC(C)C[C@H](NC(=O)[C@H](Cc1ccccc1)NC(=O)c1cnccn1)B(O)O,BRD4-HiBiT cells,"BRD4 degradation rescue, inhibitor",,"4 h, together with: dBET6 500 nM",,EC50,121 nM
CC(C)NCC(O)c1ccc(O)c(O)c1 (centres unmarked),mouse ventricular cardiomyocytes,,,"dose not given, 0.12 s",,sarcomere length,1.64 µm

# Some of these lines once more:
SMILES,cell line,test,test system,setting,scale,quantity,value
Cn1cc(-n2cnc3c(NCc4nc5cc(Cl)c(Cl)cc5[nH]4)nc(N4CCOCC4)nc32)cn1,MDA-MB-231,"qRT-PCR, refers to: FANCD2",,"50 nM, 6 h, unit not given",relative to: untreated,mRNA level,0.894
Cc1nc(NC(=O)N2CCC[C@H]2C(N)=O)sc1-c1ccnc(C(C)(C)C(F)(F)F)c1,MKN-1,CellTiter-Glo,,120 h,,Hill coefficient GR curve,1.52
CCn1cc(-c2cc(Cn3ccoc3=N)cc3c2CCN([C@@H](C)c2cc(OC)ccn2)C3=O)c(C(F)(F)F)n1,RL95-2,"cell growth, inhibitor",,120 h,,EC50,2730 nM
CCCCc1oc2ccc(NS(C)(=O)=O)cc2c1C(=O)c1ccc(OCCCN(CCCC)CCCC)cc1,human embryonic stem cell aggregates,"mRNA level, microarray, refers to: LRP2",,"0.5 µM, 120 h","relative to: untreated, up-regulated",fold change,3.6 fold
CC(C)c1c(C(=O)Nc2ccccc2)c(-c2ccccc2)c(-c2ccc(F)cc2)n1CC[C@@H](O)C[C@@H](O)CC(=O)O,MDA-MB-231 BAX/BAK siRNA knockdown,CellTiter-Glo,,concentration not given,relative to: normalised luminescence,viability,37.9% and 44.1%
O=C(/C=C/C=C/C=C/C1CCCCC1)NC1=C[C@@](O)(/C=C/C=C/C=C/C(=O)NC2=C(O)CCC2=O)[C@@H]2O[C@@H]2C1=O,KYSE-410,"cell growth, CellTiter-Glo",,78 h,,GI50,26100 nM
COC1=CC(=O)C=C(OC)C1=O,MDA-MB-231 BAX/BAK siRNA knockdown,"cell viability, CellTiter-Glo",,,direction not given,Z score,-0.963
Cc1nn(-c2nc3c(F)cc(F)cc3s2)c(O)c1C(c1cccc(C(F)(F)F)c1)c1c(C)nn(-c2nc3c(F)cc(F)cc3s2)c1O,THP1-Dual,IFN luciferase reporter,,"1.25 µM, together with: HT-DNA",,inhibition,-2.66% and -2.18% and -8.54% and 4.36% and -6.3% and -8.37%
